Experimental data from different studies.
Lines come from different studies, so protocols differ. ± marks the error that the study gave.

SMILES | assay | system | conditions | how to read | endpoint | result
Cc1cccc(-c2cccc(C)n2)n1.[Cl-].[Cl-].[Ru+2].c1ccc(-c2ccccn2)nc1.c1ccc(-c2ccccn2)nc1 | – | phosphate buffer with NaCl | pH 7.4, 37 °C, photoactivated, dialysis | – | release from nanoassemblies | 65.8%
CSCC[C@@H]1NC(=O)[C@@H]2CSSC[C@H](NC(=O)[C@H](CO)NC(=O)[C@H](C)N)C(=O)N[C@@H](CCCNC(=N)N)C(=O)N[C@@H]([C@@H](C)O)C(=O)N3CCC[C@H]3C(=O)N[C@@H](CCCCN)C(=O)N[C@@H](CC(=O)O)C(=O)N[C@H]3CSSC[C@H](NC(=O)[C@H](CCCCN)NC(=O)[C@H](CCCNC(=N)N)NC(=O)[C@H](CC(N)=O)NC1=O)C(=O)N[C@@H](CCCCN)C(=O)N[C@H]1CSSC[C@H](NC(=O)[C@@H]4CCCN4C(=O)[C@H](CC(=O)O)NC(=O)[C@H](C)NC3=O)C(=O)N[C@@H](C)C(=O)N[C@@H](CCCCN)C(=O)N[C@@H](CCC(=O)O)C(=O)N[C@@H]([C@@H](C)O)C(=O)NCC(=O)N[C@@H](CSSC[C@@H](C(N)=O)NC(=O)[C@H](CCCNC(=N)N)NC(=O)[C@H](CC(N)=O)NC1=O)C(=O)N1CCC[C@H]1C(=O)N[C@@H](Cc1ccc(O)cc1)C(=O)NCC(=O)N[C@@H](CCCCN)C(=O)N2 | – | DA rat pristane-induced arthritis, serum | subcutaneous, 0.1 mg/kg once weekly, 21 days | – | Chloride | 109 mmol/L
[3H]c1sc(C)nc1C=C(C)C1CC2C(CCCC(C)C(O)C(C)C(=O)C(C)(C)C(O)CC(=O)O1)N2CCO (stereo not shown) | whole-body autoradiography | CD2F1 mice, intestine contents | intravenous, 2.2 nmol/kg, 0.5 h | – | radioactivity in tissue | 49.4 ± 26.2 µg-eq/g
COc1ccc(NC(=O)Cn2c(=O)c3ccccc3n(CC(=O)Nc3cc([125I])c(OC)cc3OC)c2=O)cc1 | – | rat, brain | intravenous, 30 min | – | tracer uptake | 0.01 %ID/g
N=C(N)NCc1ccc(C(=O)NCCCC[C@H](NC(=O)N[C@@H](CCC(=O)O)C(=O)O)C(=O)O)cc1[211At] | – | SCID mouse, PC-3 xenografts, bone | 21 h | – | tissue uptake | 0.09 ± 0.03 %ID/g
CC[C@H](C)C(=O)N1CCC(NC(=O)Nc2ccc(OC(F)(F)F)c(F)c2)CC1 | – | human, plasma | oral, 8 mg, single dose, fed, healthy volunteers | – | AUC(0-inf) | 4260 ng·h/mL
C#Cc1c(F)ccc2cc(O)cc(-c3ncc4c(N5CC6CCC(C5)N6C(=O)/C(C)=C(/C)C(=O)OCCCC)nc(OC[C@@]56CCCN5C[C@H](F)C6)nc4c3F)c12 | – | mouse whole blood | 60 min | – | parent drug release | not detected
CCN1CCCC1CNC(=O)c1cc(Br)cc(OC)c1O[11CH3] (stereo not shown) | – | rhesus monkey, cerebellum | dose not given, 80 min, decay-corrected | reference: [18F]fallypride, higher than reference | cerebellar concentration difference | 70%
CCCCCCCCCCCCC(=O)O.O=C1CCCC2C3CCCN4CCCC(CN12)C34 (stereo not shown) | electrical conductivity | water | 293.15 K | – | standard Gibbs energy of aggregation | -34.7 kJ/mol
CCN(CCCCOc1ccc(CCC(=O)N2CCC(Cc3ccccc3)CC2)cc1OC)Cc1ccccc1 | – | Kunming mice | oral, 14 days | – | dose without obvious toxicity | ≤ 1500 mg/kg
C[C@H]1CN(Cc2ccc(C(F)(F)F)cc2N2C3CCC2CN(CC(=O)O)C3)CCN1C(=O)n1ccc(S(=O)(=O)N(C)C)n1 | metabolic stability | human, liver microsomes | – | – | microsomal CLint | 4.8 µL/min/mg
COC(=O)C[C@](O)(CCCC(C)(C)OC(C)=O)C(=O)O[C@@H]1C(OC)=C[C@]23CCCN2CCc2cc4c(cc2[C@H]13)OCO4 | – | CD1 mouse, bone marrow | subcutaneous, 1 mg/kg, 24 h, below quantification limit 1.00 ng/mL | – | tissue concentration | not detected
CSCC[C@H](NC(=O)CNC(=O)[C@H](CCCCN)NC(=O)[C@H](CC(C)C)NC(=O)[C@@H]1CCCN1C(=O)[C@H](CO)NC(=O)[C@H](Cc1c[nH]cn1)NC(=O)[C@H](Cc1c[nH]c2ccccc12)NC(=O)[C@H](CCCNC(=N)N)NC(=O)[C@H](CC(C)C)NC(=O)[C@H](CCCNC(=N)N)NC(=O)[C@H](Cc1c[nH]c2ccccc12)NC(=O)[C@H](CS)NC(=O)CN1CCN(CC(=O)O)CCN(CC(=O)O)CCN(CC(=O)O)CC1)C(=O)O [copper-64 labelled] | radio-HPLC | mouse serum | 1 h, 37 °C | – | intact tracer remaining | ~22.4%
CNC(=O)Oc1cc(C)c(S(C)(=O)=O)c(C)c1 | – | human liver microsomes | 1 µM, 30 min, 0.5 mg/mL protein | – | percent metabolized | 54.6%
COc1cc(NC(=O)C(=O)c2c(C)n(Cc3ccc(Cl)cc3)c3ccc(C)cc23)ccn1 | – | cynomolgus monkey, plasma | intravenous, 1 mg/kg | – | clearance | 8 to 11 mL/min/kg
CC[C@H](C)[C@@H]1NC(=O)[C@H](CCCCN)NC(=O)[C@H](CCCCN)NC(=O)[C@H](Cc2c[nH]c3ccccc23)NC(=O)[C@H](CC(C)C)NC(=O)[C@@H]2CCCN2C(=O)[C@H](C)NC(=O)CNC(=O)CNC(=O)[C@H](CO)NC(=O)CNC(=O)CNC(=O)[C@H](CO)NC(=O)[C@H](CCC(=O)O)NC(=O)[C@H](CC(C)C)NC(=O)[C@H](CC(C)C)NC(=O)[C@H](CCCCN)NC(=O)[C@H](CCCCN)NC(=O)[C@H]([C@@H](C)CC)NC(=O)[C@H]([C@@H](C)CC)NC(=O)[C@H](CCCCN)NC(=O)[C@H](CCCCN)NC(=O)[C@H](Cc2c[nH]c3ccccc23)NC(=O)[C@H](CC(C)C)NC(=O)[C@@H]2CCCN2C(=O)CNC(=O)CNC(=O)[C@@H](NC(=O)CN)CSSC[C@@H](C(N)=O)NC(=O)[C@H](CC(C)C)NC(=O)[C@H](CCCCN)NC(=O)[C@H](CCCCN)NC(=O)[C@H]([C@@H](C)CC)NC1=O | – | 25% human serum | 50 µM, 24 h | reference: 0 h control | remaining intact peptide | 53.6 ± 4.9%
[2H]C([2H])([2H])C([2H])([2H])C([2H])([2H])OC(C(=O)OC1CCNCC1)(c1ccccc1)c1ccccc1 | measured: diarrhea | healthy Japanese male | oral, 10 mg, 16 days, multiple ascending dose | – | adverse events | 14.3%
CN(C)C(CNC(=O)Nc1cc(C(F)(F)F)ccc1N1CCOCC1)c1ccncc1 (stereo not shown) | – | mouse, serum | intraperitoneal, 360 mg/kg single dose | – | serum indirect bilirubin | 0.4 mg/dL
CC(=O)[O-].F[P-](F)(F)(F)(F)F.[Co+2].c1ccc(CN2CCCN3CCN(CCCN(Cc4ccccc4)CC3)CC2)cc1 | cyclic voltammetry, measured: second Co2+/Co3+ couple | acetonitrile | – | – | peak separation | 75 mV
NC(=O)[C@@H](CCCCNC(=O)CNC(=O)CCC(=O)NCCc1c[nH]cn1)NC(=O)[C@@H](Cc1ccc(O)cc1)NC(=O)[C@@H](CCCCNC(=O)CNC(=O)CCC(=O)NCCc1c[nH]cn1)NC(=O)Cc1ccc(CN2CCN(CC(=O)O)CCN(CC(=O)O)CC2)cc1 [fluorine-18 labelled] | – | tumour-bearing nude mice | intravenous, 1 h, TF2 pretargeting | reference: tumour over liver | tissue ratio | 123 ± 38
CC(COC(=O)c1ccccc1)OC(=O)C(N)Cc1ccccc1 (mixture of isomers) | – | isotonic buffer | pH 6.0, 37 °C | – | half-life | > 1800 min
CC(C)C[C@H](NC(=O)[C@H](CCCCN)NC(=O)[C@H](CCC(=O)O)NC(=O)[C@H](C)NC(=O)[C@@H](NC(=O)[C@H](CCCCN)NC(=O)[C@H](CC(=O)O)NC(=O)[C@H](Cc1ccc(O)cc1)NC(=O)[C@H](Cc1ccccc1)NC(=O)[C@H](C)NC(=O)[C@H](CCCCN)NC(=O)[C@H](CC(C)C)NC(=O)[C@H](Cc1c[nH]c2ccccc12)NC(=O)[C@@H](N)CC(=O)O)C(C)C)C(=O)N[C@@H](CCCCN)C(=O)N[C@@H](CCC(=O)O)C(=O)N[C@@H](C)C(=O)N[C@@H](Cc1ccccc1)C(=O)N1CCC[C@H]1C(=O)N[C@@H](CC(=O)O)C(=O)N[C@@H](Cc1c[nH]c2ccccc12)C(=O)N[C@@H](C)C(=O)N[C@@H](CCCCN)C(=O)N[C@@H](C)C(=O)N[C@@H](C)C(=O)N[C@@H](Cc1ccc(O)cc1)C(=O)N[C@@H](CC(=O)O)C(=O)N[C@@H](CCCCN)C(=O)N[C@@H](C)C(=O)N[C@@H](C)C(=O)N[C@@H](CCC(=O)O)C(=O)N[C@@H](CCCCN)C(=O)N[C@@H](C)C(=O)N[C@@H](CCCCN)C(=O)N[C@@H](CCC(=O)O)C(=O)N[C@@H](C)C(=O)N[C@@H](C)C(=O)O | – | cynomolgus monkey male, plasma | intravenous infusion, 75 mg/kg every other day, day 27 | – | Tmax | 0 h
